Results pooled from the literature.
Lines come from different studies, so protocols differ. “And” joins repeats or separate records; there may be more than shown. ± marks the error that the study gave. In brackets after ≈: the same amount, converted by molar mass.

CC(C)(C(=O)N1CCOc2c(C#N)cncc2C1)C(F)F — subjects with adverse event (measured: renal and urinary disorders; human; oral, 40 mg, CSF pharmacokinetic cohort): 16.7%
COc1cc(Nc2ncc3c(n2)-c2ccc(Cl)cc2C(c2c(F)cccc2OC)=NC3)ccc1C(=O)O — patients with adverse event (measured: Fever, all grades; cancer patients, phase 1/2; oral, dose not given, together with: pembrolizumab): 13%
COc1ccc(CNc2nc(-c3ccc(C(=O)O)cc3)nc3c2c2ccccc2n3C)cc1Cl — body weight (NSG mice; dose not given, day 2): 25.2 g and 23.2 g and 19.7 g and 22.5 g
O=C(O)CCC(=O)O.[2H]C([2H])([2H])Oc1cc(C)c2[nH]ccc2c1CN1CC[C@@H](C2CC2)C[C@H]1c1ccc(C(=O)O)cc1 — Cmax (human, plasma; 125 mg twice daily, day 10, multiple ascending dose, geometric mean): 4680 ng/mL
FC(F)(F)c1ccc(CNc2ccc(Cc3c[nH]c4ncc(Cl)cc34)cn2)cn1 — treatment-related adverse events (measured: dry skin; human, advanced solid tumours, all patients; oral, 1000 mg/day, any grade): 6%
COc1ccc([C@@H](O)c2cc(-c3ncnc4cc(N5CCOCC5)ccc34)c(F)cc2Cl)nn1 — patients with TEAE (measured: Nausea; locally advanced rectal cancer patients; dose not given, all dose groups, together with: capecitabine plus radiotherapy): 47%
O=C1NCCc2nc(OCc3cccc(F)c3)ccc21 — Irwin test score (measured: Salivation; Sprague-Dawley rat male; oral, 100 mg/kg, 0 min; baseline: baseline, direction not given): 0
Cc1ccc([C@@H]2O[C@H](CO)[C@@H](O)[C@H](O)[C@H]2O)cc1Cc1ccc(-c2ccc(F)cc2)s1 — urinary chloride excretion change (Japanese type 2 diabetes patients; 200 mg, day 2, 24 h urine collection; baseline: baseline): -27.1 mEq
C=CC[C@@H]1/C=C(\C)C[C@H](C)C[C@H](OC)[C@H]2O[C@@](O)(C(=O)C(=O)N3CCCC[C@H]3C(=O)O[C@H](/C(C)=C/[C@@H]3CC[C@@H](O)[C@H](OC)C3)[C@H](C)[C@@H](O)CC1=O)[C@H](C)C[C@@H]2OC — urinary Mg2+ excretion (Wistar Kyoto rat, male, 24-hour urine; ip, 0.5 mg/kg/day, day 18): 344 ± 68 µmol/day
C=CC(=O)NC1CCN(c2ncc3ncnc(Nc4ccc(Oc5ccc6c(c5)ncn6C)c(C)c4)c3n2)CC1 — aqueous solubility (shake flask; simulated gastric fluid; 24 h, pH 1.2, 37 °C): > 1000 µg/mL
CC(C)n1c(Nc2cccnc2)nc2cnc(Nc3ccc(N4CCN(C)CC4)cc3)nc21 — subjects with adverse event (measured: sinus bradycardia; healthy male subjects; oral, 150 mg, study, together with: rifampin): 7.1%
O=C1COCCN1c1ccc(CO[C@@H]2COc3nc([N+](=O)[O-])cn3C2)cc1F — aqueous solubility (aqueous buffer; pH 7.4): 30.1 µg/mL (≈ 76.7 µM)
C=CC(=O)NC1CCN(c2ncc3ncnc(Nc4ccc(Oc5ccc6c(c5)ncn6C)c(C)c4)c3n2)CC1 — participants with grade 2 myalgia (human, male; oral, 240 mg, treatment-emergent adverse event): 6.3%
COc1ccc2c(c1)CN(C(=O)CCN1CCC(Cc3ccccc3)CC1)CC[S@@+]2[O-] — QT interval (telemetry; conscious male beagle dogs; intravenous, 8 mg/kg, 2 h): 242 ± 24 ms
CNCc1ccc(-c2[nH]c3cc(F)cc4c3c2CCNC4=O)cc1 — diarrhoea incidence (human patients; oral, 600 mg twice daily, grade 1): 15.4%
Cc1cc(Nc2ccc(S(F)(F)(F)(F)F)cc2)n2nc(C(C)(F)F)nc2n1 — adverse event Pyrexia (Plasmodium vivax malaria patients; oral, 600 mg): 55.6%
OC[C@H]1O[C@@H](c2ccc(Cl)c(Cc3ccc(O[C@H]4CCOC4)cc3)c2)[C@H](O)[C@@H](O)[C@@H]1O — change in Chloride (Japanese type 1 diabetes patients, blood; 10 mg, day 28; baseline: baseline): 1 mEq/L
NC1(C(=O)N[C@@H](CCO)c2ccc(Cl)cc2)CCN(c2nc[nH]c3nccc2-3)CC1 — incidence of lower abdominal pain (metastatic CRPC patients; 320 mg b.i.d., grade 3 to 4, treatment-related, together with: enzalutamide 160 mg daily): 0%
C[C@H](CCC(=O)NCCS(=O)(=O)O)[C@H]1CC[C@H]2[C@@H]3CC[C@@H]4C[C@H](OS(=O)(=O)O)CC[C@]4(C)[C@H]3CC[C@]12C — relative peak deviation (human, plasma; endogenous baseline diurnal; baseline: daily mean concentration): 76.4 ± 11.1%
CC(C)(C)c1ccc(O)c(CN(Cc2cc(C(C)(C)C)ccc2O)C2CCC(NC(N)=O)CC2)c1 (centres unmarked) — dose-normalised Cmax (C57BL/6 mice, male, brain; intraperitoneal, 25 mg/kg, single dose): 64 ng/g per mg/kg
N=C(N)NCCNC(=O)C1(Nc2ccccc2)CCN(Cc2ccccc2)CC1 — mean residence time (Sprague-Dawley rats, both sexes, plasma; intravenous, 2.5 mg/kg, mean of both sexes): 0.1 h
COCC(=O)N1CCC[C@H](C(=O)NCc2nc(-c3ccc(C#N)cc3)cs2)C1 — urinary excretion (Sprague-Dawley rat, male, urine; intravenous, 1 mg/kg, 24 h; baseline: dose): 0.52%
CCO[C@H]1CCN(Cc2c(OC)cc(C)c3[nH]ccc23)[C@H](c2ccc(C(=O)O)cc2)C1 — unbound Tmax (healthy volunteers, plasma; oral, 200 mg single dose, median): 2.25 h
C=CCN1CC(=O)N2[C@@H](Cc3ccc(O)cc3F)C(=O)N(Cc3cccc(N4CC(N5CCN(CC)CC5)C4)n3)C[C@@H]2N1C(=O)NCc1ccccc1 — treatment-related nausea (advanced solid tumour patients; oral, 30 mg twice daily, grade ≥3, dose-escalation): 0%
CCn1c(=O)c(-c2cc(NC(=O)Nc3ccccc3)c(F)cc2Br)cc2cnc(N)cc21 — unbound fraction at Cmax (ultracentrifugation; human, hepatic impairment mild or matched healthy, plasma; oral, 50 mg single dose): 0.462%
CO[C@H]1C[C@@H]2CC[C@@H](C)[C@@](O)(O2)C(=O)C(=O)N2CCCC[C@H]2C(=O)O[C@H]([C@H](C)C[C@@H]2CC[C@@H](OC(=O)NCCOCCOCCOCCOCCOCCOCCOCCOCCC(=O)N3CCc4cc(Cn5nc(-c6ccc7oc(N)nc7c6)c6c(N)ncnc65)ccc4C3)[C@H](OC)C2)C[C@@H](O)[C@H](C)/C=C(\C)[C@@H](O)[C@@H](OC)C(=O)[C@H](C)C[C@H](C)/C=C/C=C/C=C/1C — unbound AUClast (human patients, plasma; intravenous, 8 mg, cycle 1 day 15): 0.0265 µM·h
NC(=O)N1c2ccccc2C=Cc2ccccc21 — adverse events incidence (measured: gingival bleeding; human male; oral, dose not given, AEs, treatment-related, on drug, CTCAE): 0%
CC[C@H](C)C(=O)O[C@H]1C[C@@H](C)C=C2C=C[C@H](C)[C@H](CC[C@@H]3C[C@@H](O)CC(=O)O3)[C@H]21 — remaining compound (dog, Beagle, both sexes, whole blood; 5 µM, 30 min): 92.3%
C[C@@H](N)c1cc(Cl)ccc1Cn1c(=S)[nH]c(=O)c2[nH]ccc21 — non-renal clearance (human, both sexes, matched healthy controls; oral, 2.5 mg single dose, geometric mean): 120 mL/min
CCc1c(-c2ccccc2)c(-c2ccccc2)nn1-c1ccccc1-c1cccc(OCC(=O)O)c1 — concentration (Sprague-Dawley rat, plasma; oral, 10 mg/kg, 1 h): 4900 ng/mL and 2630 ng/mL
N#Cc1ccc2c(c1)[C@H]1CCCN(C(=O)c3ccc4[nH]cnc4c3)[C@H]1C2 — total testosterone level (human females; 80 mg, day 15): 1.6 nmol/L
CC(C)[C@H](C(=O)Nc1ccc(C(=O)NO)cc1)c1ccccc1 — measured concentration (whole blood; 100 ng/mL, 5 h, 4 °C, stability on ice): 112 ng/mL
C=CC(=O)Nc1cc(Nc2nccc(-c3cn(C4CC4)c4ccccc34)n2)c(OC)cc1N(C)CCN(C)C — ALT activity (BALB/c nude mouse, LU0387 xenograft, serum; oral, 40 mg/kg): 36.9 ± 4.51 U/L
CNC(=O)c1ccc(-c2cnc3ncc(Cc4ccc5ncccc5c4)n3n2)cc1F — patients with adverse event (measured: Dyspepsia; cancer patients; oral, dose not given, dose escalation, grade 3-4): 0%
O=C(c1cccnc1-c1ccncc1)N1CCC(O)(Cc2ccccc2)CC1 — terminal half-life (healthy Japanese adults, plasma; oral, 300 mg twice daily, day 21): 2.93 h
Cc1cccc(CNC(=O)c2cn(CCNC(=O)c3ccccc3S)c3cc4c(cc3c2=O)OC(F)(F)O4)n1 — half-life (Sprague-Dawley rat, male, whole blood; intravenous, 5 mg/kg of parent compound): 5.4 h
Cc1ccc(Sc2ccccc2N2CCNCC2)c(C)c1 — participants with TEAE (measured: Headache; healthy adult men; oral, 2.5 mg single dose): 0%
C[C@H]1CN(C(=O)CC#N)[C@]12CCN(c1ncnc3[nH]ccc13)C2 — subjects with Arthralgia (healthy human; oral, 3 mg single): 12.5%
Cc1cc(=O)n(-c2ccccc2)n1C — unbound intrinsic clearance (Sprague-Dawley rat, male): 6.43 mL/min/kg
CN(C(=O)n1cnc(-c2cccnc2)c1)C1CCCCC1 — concentration (Wistar rat, pons; oral, 10 mg/kg/day of BIA 10-2474, 48 h, repeated 5 days): 7.8 ± 0.2 ng/g
COc1ncc(-c2nc3c(n2C(C)C)[C@H](c2ccc(Cl)cc2)N(c2cc(Cl)cn(C)c2=O)C3=O)c(OC)n1 — geometric mean Cmax (human patients, plasma; oral, 30 mg, cycle 1 day 1, low-dose): 177 ng/mL
C[C@@H](Oc1cc(-c2cnn(C3CCNCC3)c2)cnc1N)c1c(Cl)ccc(F)c1Cl — average steady-state concentration (human, plasma; recommended dose, total): 719 nmol/L
CO[C@@H]1[C@H](OC(=O)N2CC(CCN3CCOCC3)C2)CC[C@]2(CO2)[C@H]1[C@@]1(C)O[C@@H]1CC=C(C)C — D-dimer (humans; subcutaneous, 1.8 mg twice weekly for 4 weeks, day 28; baseline: baseline): -0.05 ± 0.07 mg/dL
Cc1cc(C)c(CNC(=O)c2cc(Cl)c3c(c2C)O[C@@](C)([C@H]2CC[C@H](N(C)C)CC2)O3)c(=O)[nH]1 — grade ≥3 Neutrophil count decreased (relapsed/refractory NHL patients; oral, 200 mg once daily, onset after cycle 1 day 1): 16.7%

For quick reference, copied from above:
COCC(=O)N1CCC[C@H](C(=O)NCc2nc(-c3ccc(C#N)cc3)cs2)C1 — urinary excretion (Sprague-Dawley rat, male, urine; intravenous, 1 mg/kg, 24 h; baseline: dose): 0.52%
CCO[C@H]1CCN(Cc2c(OC)cc(C)c3[nH]ccc23)[C@H](c2ccc(C(=O)O)cc2)C1 — unbound Tmax (healthy volunteers, plasma; oral, 200 mg single dose, median): 2.25 h
